Published values pooled from the literature.
Numbered parts are unrelated; each lists some results of a single study.
Chain of UniProt Q8N5S9 (whole entry, looked up): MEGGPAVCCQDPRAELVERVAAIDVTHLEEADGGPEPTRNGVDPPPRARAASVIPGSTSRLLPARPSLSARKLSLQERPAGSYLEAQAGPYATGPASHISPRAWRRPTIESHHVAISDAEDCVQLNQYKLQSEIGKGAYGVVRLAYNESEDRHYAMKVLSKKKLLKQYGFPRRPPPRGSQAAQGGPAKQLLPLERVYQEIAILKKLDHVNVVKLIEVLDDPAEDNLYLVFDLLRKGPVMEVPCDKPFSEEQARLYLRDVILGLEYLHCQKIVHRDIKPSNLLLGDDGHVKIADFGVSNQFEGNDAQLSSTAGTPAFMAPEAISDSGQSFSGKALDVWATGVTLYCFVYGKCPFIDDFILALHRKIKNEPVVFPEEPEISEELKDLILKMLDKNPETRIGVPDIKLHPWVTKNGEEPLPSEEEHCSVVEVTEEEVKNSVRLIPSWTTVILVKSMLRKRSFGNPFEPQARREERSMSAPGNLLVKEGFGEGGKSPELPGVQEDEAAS
Chain of UniProt Q96Q40 (whole entry, looked up): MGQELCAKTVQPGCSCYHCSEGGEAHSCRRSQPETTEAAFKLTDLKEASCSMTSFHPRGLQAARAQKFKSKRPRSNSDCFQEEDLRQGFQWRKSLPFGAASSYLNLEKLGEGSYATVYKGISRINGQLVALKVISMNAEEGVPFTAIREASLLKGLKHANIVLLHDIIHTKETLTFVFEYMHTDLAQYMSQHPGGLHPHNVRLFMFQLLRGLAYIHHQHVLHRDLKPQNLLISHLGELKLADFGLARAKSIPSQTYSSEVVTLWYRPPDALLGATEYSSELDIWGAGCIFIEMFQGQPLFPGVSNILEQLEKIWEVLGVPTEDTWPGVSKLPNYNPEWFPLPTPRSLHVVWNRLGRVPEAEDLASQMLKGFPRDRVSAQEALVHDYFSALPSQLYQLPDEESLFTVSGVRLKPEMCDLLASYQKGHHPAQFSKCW
Chain of UniProt Q12852 (whole entry, looked up): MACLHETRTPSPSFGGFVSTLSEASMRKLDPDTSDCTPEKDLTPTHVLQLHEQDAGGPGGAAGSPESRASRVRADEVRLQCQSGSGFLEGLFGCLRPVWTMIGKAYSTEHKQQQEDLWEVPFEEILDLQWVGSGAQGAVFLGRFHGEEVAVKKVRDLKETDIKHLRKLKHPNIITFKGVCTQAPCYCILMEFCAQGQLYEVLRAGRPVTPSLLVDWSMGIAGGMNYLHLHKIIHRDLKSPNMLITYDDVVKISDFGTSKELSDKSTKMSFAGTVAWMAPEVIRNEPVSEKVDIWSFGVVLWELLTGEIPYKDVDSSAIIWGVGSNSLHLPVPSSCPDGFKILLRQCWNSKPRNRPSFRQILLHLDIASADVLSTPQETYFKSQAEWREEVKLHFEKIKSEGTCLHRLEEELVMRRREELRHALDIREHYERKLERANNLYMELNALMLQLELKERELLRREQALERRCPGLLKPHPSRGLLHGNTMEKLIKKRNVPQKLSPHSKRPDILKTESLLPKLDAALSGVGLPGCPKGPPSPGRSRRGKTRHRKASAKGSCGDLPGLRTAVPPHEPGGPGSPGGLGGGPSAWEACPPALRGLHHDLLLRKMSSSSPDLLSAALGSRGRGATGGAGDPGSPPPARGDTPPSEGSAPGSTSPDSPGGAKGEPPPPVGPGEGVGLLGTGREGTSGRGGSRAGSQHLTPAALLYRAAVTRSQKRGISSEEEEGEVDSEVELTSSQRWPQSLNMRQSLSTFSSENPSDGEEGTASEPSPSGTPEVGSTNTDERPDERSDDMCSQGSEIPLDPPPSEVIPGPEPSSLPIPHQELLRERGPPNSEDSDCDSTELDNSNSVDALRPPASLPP
Chain of UniProt P57059 (whole entry, looked up): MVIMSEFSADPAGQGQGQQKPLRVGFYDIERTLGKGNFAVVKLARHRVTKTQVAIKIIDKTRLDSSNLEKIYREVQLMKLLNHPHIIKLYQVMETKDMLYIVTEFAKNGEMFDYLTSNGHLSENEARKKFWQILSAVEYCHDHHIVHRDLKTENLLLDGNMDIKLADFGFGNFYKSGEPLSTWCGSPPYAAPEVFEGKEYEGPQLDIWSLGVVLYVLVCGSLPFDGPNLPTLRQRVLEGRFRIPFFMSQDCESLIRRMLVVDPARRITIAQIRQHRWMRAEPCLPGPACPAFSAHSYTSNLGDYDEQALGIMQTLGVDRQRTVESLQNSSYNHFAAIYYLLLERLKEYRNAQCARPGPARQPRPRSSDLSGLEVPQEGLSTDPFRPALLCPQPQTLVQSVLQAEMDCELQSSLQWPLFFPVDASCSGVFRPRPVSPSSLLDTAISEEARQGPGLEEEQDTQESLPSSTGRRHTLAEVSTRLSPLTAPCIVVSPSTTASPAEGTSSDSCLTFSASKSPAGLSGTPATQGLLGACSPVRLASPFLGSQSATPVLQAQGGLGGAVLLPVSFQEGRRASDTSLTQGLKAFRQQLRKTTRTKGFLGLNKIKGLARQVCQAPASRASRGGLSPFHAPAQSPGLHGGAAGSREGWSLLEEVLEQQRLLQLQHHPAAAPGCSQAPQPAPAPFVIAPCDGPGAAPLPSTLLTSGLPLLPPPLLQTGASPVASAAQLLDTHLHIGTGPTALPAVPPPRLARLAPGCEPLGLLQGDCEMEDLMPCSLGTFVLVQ
Chain of UniProt Q16659 (whole entry, looked up): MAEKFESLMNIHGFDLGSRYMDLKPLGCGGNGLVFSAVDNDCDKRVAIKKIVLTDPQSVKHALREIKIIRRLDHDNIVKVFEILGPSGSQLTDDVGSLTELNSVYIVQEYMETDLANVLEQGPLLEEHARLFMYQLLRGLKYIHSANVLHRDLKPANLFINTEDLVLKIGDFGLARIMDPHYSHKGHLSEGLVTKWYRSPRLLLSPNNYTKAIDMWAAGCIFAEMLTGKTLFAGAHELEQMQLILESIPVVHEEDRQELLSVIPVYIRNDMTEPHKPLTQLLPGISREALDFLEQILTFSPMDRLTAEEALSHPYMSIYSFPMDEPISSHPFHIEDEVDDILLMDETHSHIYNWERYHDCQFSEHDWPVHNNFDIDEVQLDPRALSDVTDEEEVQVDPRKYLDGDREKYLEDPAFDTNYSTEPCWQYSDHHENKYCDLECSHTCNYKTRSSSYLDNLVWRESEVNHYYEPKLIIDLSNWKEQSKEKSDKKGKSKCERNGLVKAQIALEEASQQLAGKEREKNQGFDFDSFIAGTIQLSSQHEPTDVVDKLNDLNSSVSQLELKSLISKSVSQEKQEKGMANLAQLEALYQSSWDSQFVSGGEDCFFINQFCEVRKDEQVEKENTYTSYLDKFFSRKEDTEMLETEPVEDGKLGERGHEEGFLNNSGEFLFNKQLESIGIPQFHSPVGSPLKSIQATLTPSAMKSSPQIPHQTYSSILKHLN
Chain of UniProt O43318 (whole entry, looked up): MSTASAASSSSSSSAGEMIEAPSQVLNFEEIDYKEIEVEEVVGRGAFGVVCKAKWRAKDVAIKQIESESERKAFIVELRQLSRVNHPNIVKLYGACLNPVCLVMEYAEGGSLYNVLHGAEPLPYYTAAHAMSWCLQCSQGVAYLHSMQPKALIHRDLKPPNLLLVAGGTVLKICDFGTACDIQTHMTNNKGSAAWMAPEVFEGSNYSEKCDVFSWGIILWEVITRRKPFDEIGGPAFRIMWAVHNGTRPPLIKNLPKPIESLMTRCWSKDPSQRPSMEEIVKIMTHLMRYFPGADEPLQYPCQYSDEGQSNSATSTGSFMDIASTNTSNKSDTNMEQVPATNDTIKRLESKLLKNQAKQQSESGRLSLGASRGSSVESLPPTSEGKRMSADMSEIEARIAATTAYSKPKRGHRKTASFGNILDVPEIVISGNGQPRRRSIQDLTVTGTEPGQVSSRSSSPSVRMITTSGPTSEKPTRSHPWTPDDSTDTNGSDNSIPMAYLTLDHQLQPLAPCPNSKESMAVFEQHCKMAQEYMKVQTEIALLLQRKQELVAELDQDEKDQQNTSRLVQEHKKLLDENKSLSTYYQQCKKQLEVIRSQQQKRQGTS
Chain of UniProt Q9P0L2 (whole entry, looked up): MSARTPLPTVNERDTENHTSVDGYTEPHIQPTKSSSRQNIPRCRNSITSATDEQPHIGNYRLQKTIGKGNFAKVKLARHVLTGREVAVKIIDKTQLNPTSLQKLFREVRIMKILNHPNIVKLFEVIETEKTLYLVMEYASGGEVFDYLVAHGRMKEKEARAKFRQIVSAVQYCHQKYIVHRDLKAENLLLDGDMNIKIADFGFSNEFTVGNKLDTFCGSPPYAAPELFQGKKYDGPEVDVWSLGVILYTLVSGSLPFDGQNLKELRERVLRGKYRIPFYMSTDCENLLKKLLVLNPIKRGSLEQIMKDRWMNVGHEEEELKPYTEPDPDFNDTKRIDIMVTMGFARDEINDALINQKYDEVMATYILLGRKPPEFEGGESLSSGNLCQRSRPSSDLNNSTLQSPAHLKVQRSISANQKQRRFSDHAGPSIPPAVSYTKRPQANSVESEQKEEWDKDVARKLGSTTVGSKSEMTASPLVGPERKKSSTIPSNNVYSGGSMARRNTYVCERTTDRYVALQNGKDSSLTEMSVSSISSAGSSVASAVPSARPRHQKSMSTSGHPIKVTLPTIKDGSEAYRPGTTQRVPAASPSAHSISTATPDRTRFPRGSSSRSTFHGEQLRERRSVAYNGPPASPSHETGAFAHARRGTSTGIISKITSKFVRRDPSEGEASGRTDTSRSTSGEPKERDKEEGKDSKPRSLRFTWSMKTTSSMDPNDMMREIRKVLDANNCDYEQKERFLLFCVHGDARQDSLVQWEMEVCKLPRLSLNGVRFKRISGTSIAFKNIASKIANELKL

Series 1 — concentration: 1 µM; measurement: remaining binding
Structure (SMILES): CCCOc1ccc([C@@H]2[C@@H](C(=O)O)[C@H](c3ccc4c(c3)OCO4)CN2CC(=O)Nc2c(CC)cccc2CC)cc1
target = RET (Homo sapiens, UniProt P07949); observed = cell-free assay; method = competition with immobilised ligand; value = 97%
target = CAMKK1 (Homo sapiens, UniProt Q8N5S9); observed = cell-free assay; method = competition with immobilised ligand; value = 81%
target = TLK2 (Homo sapiens, UniProt Q86UE8); observed = cell-free assay; method = competition with immobilised ligand; value = 100%
target = MAP3K11 (Homo sapiens, UniProt Q16584); observed = cell-free assay; method = competition with immobilised ligand; value = 100%
target = DYRK1B (Homo sapiens, UniProt Q9Y463); observed = cell-free assay; method = competition with immobilised ligand; value = 99%
target = CDC42BPG (Homo sapiens, UniProt Q6DT37); method = competition binding; value = 57%
target = ACVRL1 (Homo sapiens, UniProt P37023); observed = binding; method = competition with immobilised ligand; value = 100%
target = MAP3K7 (Homo sapiens, UniProt O43318); observed = cell-free assay; method = competition with immobilised ligand; value = 97%
target = FGFR3 (Homo sapiens, UniProt P22607); observed = cell-free assay; method = competition with immobilised ligand; value = 100%
target = Ribosomal protein S6 kinase alpha-2, C-terminal kinase domain (RPS6KA2, Homo sapiens, UniProt Q15349); observed = cell-free assay; method = competition with immobilised ligand; value = 81%
target = PAK1 (Homo sapiens, UniProt Q13153); observed = cell-free assay; method = competition with immobilised ligand; value = 98%
target = FES (Homo sapiens, UniProt P07332); observed = cell-free assay; method = competition with immobilised ligand; value = 97%
target = GRK1 (Homo sapiens, UniProt Q15835); observed = cell-free assay; method = competition with immobilised ligand; value = 100%
target = ACVR1 (Homo sapiens, UniProt Q04771); observed = cell-free assay; method = competition with immobilised ligand; value = 95%
target = TIE1 (Homo sapiens, UniProt P35590); observed = cell-free assay; method = competition with immobilised ligand; value = 96%

Series 2 — observed: binding; concentration: 1 µM; measurement: remaining binding
Compound: CN1CCN(C(=O)c2ccc(NC(=O)Nc3ccc(N(C)c4ccnc(Nc5ccc(CS(C)(=O)=O)cc5)n4)cc3)cc2)CC1
target = PRKCE (Homo sapiens, UniProt Q02156); value = 99%
target = STK39 (Homo sapiens, UniProt Q9UEW8); value = 79%
target = MAP3K12 (Homo sapiens, UniProt Q12852); value = 30%
target = SIK1 (Homo sapiens, UniProt P57059); method = competition with immobilised ligand; value = 92%
target = CDK15 (Homo sapiens, UniProt Q96Q40); method = competition with immobilised ligand; value = 100%
target = MARK1 (Homo sapiens, UniProt Q9P0L2); value = 44%
target = MAPK6 (Homo sapiens, UniProt Q16659); value = 100%
target = DCLK2 (Homo sapiens, UniProt Q8N568); value = 79%
target = STK33 (Homo sapiens, UniProt Q9BYT3); method = competition with immobilised ligand; value = 92%
target = STK17A (Homo sapiens, UniProt Q9UEE5); value = 100%
target = IKBKE (Homo sapiens, UniProt Q14164); value = 38%
target = BMPR1A (Homo sapiens, UniProt P36894); method = competition with immobilised ligand; value = 32%
target = SGK3 (Homo sapiens, UniProt Q96BR1); value = 79%

Series 3 — species: human; medium: microsomes or S9; concentration: 2 µM; time: 0.5 h; measurement: remaining compound
SMILES = Cc1n[nH]c(-c2ccc(O)cc2O)c1Oc1ccc(Cl)cc1; value = 40%
SMILES = C[C@@H](c1cn(-c2cccc[n+]2[O-])c(=O)c2c(C(F)(F)F)cccc12)N1C(=O)c2ccccc2C1=O; value = 98.6%
SMILES = COCC(=O)NC(c1ccccc1)c1ccccc1; value = 97.2%
SMILES = Nc1nc(-c2ccc(F)cc2)nc2oc(-c3ccccc3)nc12; value = 86.3%
SMILES = CN(Cc1ccccc1N1CCCCC1)S(=O)(=O)c1cn(C)c(=O)n(C)c1=O; value = 3.37%
SMILES = Cn1cc(-c2ccc3nnc(C[C@H](O)CO)n3n2)cn1; value = 101%
SMILES = CCCS(=O)(=O)N1CC(=O)N(c2ccc(F)cc2F)C(C)(C(=O)NC2CCCCCCC2)C1 (centres unmarked); value = 0.575%
SMILES = COc1cc(=O)n2c(c1C(=O)NCc1ccccc1C(F)(F)F)CCCC2; value = 0.959%
SMILES = Cc1ccc(S(=O)(=O)Nc2nc3ccc(NC(=O)c4cc(-c5cccs5)n[nH]4)cc3s2)cc1; value = 0.155%
SMILES = COC(=O)c1scc2c(NCCc3ccc(F)cc3)c(C(C)=O)c(=O)[nH]c12; value = 0.282%
SMILES = CC(C)[C@@H](C(=O)Nc1n[nH]c2cccc(F)c12)N1Cc2ccccc2C1=O; value = 71.7%
SMILES = c1ccc(Oc2cccc(CNc3ccc4nnnn4n3)c2)cc1; value = 64.2%

Mixed results
SMILES = CCC[C@H]1NC(=O)CSC[C@@H](C(=O)OCC)N(C)C(=O)[C@H](CC(C)C)NC(=O)[C@@H](C)N(C)C(=O)[C@@H](CC(C)C)NC(=O)[C@H](C)N(C)C(=O)[C@H]2CCCN2C(=O)[C@@H](CC(C)C)NC(=O)CN(CCC)C1=O; medium = hydrocarbon/water; measurement = logD; value = 0.957

A few entries again (series 2):
target = SIK1 (Homo sapiens, UniProt P57059); method = competition with immobilised ligand; value = 92%
target = CDK15 (Homo sapiens, UniProt Q96Q40); method = competition with immobilised ligand; value = 100%
target = MARK1 (Homo sapiens, UniProt Q9P0L2); value = 44%
target = MAPK6 (Homo sapiens, UniProt Q16659); value = 100%
